Published values collected from several papers.
A part holds a random share of what one study measured. Substitutions count along the parent as printed.

Series 1 — technique: competition protein-binding microarray; form: double-stranded DNA, one strand shown; matrix: in vitro; tested at: 2 µM; added: Cbf1 competitor, 0.05 µM; direction: higher = stronger binding
Target: Phosphate system positive regulatory protein PHO4, full length, GST-tagged (PHO4, Saccharomyces cerevisiae, UniProt P07270, residues 1-312)
Notes: whole 60-bp probe, lowest competitor level
Target sequence (chain): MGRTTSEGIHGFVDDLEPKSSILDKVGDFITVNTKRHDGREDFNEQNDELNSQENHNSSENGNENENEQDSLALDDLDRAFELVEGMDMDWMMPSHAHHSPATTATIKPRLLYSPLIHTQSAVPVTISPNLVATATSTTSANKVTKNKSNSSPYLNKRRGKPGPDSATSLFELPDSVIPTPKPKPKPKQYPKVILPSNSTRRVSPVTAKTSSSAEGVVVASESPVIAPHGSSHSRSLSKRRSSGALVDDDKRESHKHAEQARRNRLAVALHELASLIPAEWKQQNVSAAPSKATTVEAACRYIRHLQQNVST
The fluorescence intensity of `GTTCATGGAAGTGGTGGCCTGATCCATTTGCTGGTGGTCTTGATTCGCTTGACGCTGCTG` is reported as 3990 a.u.
`CGGCAAGAAAAAGATCGTGTGTCTCTAGAGCAGCTTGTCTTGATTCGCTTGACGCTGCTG` gave a fluorescence intensity of 5900 a.u.
For `CTTCTGTAAATTTGGGGAGTGGGTGGACGCGCCCCGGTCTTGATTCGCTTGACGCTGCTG`, the fluorescence intensity was 4980 a.u.
For `CTTTCCCGATCTTGCGGAGTGGGTGTAGCACATTTGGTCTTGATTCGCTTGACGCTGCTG`, the fluorescence intensity was 4550 a.u.
`TCGATTATGGTATTTCTCGTGATGGGCCGGAAAGTTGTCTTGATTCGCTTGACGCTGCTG` has a fluorescence intensity of 4850 a.u.
With `TTTCCTGTTGTGGGTCATATGACTTTGAACCAAATGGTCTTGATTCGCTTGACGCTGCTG` the fluorescence intensity was 3600 a.u.

Series 2 — target: CCND2, cyclin fold, Cln2 fusion (human); technique: yeast growth competition, sequencing; matrix: yeast; notes: weak parent motif; reference: not given; direction: higher = stronger binding
Starting sequence: WEE1 docking peptide (human); HKTFRKLRLFDTP; partner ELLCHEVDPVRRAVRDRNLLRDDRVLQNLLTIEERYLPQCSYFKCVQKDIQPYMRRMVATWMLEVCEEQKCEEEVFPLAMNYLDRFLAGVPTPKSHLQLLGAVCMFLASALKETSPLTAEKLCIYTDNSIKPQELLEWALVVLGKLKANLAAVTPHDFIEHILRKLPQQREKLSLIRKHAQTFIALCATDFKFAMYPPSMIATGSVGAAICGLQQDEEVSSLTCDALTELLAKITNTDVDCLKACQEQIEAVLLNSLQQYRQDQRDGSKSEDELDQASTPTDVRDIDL
`HKTFRKLRLKDTP [F10K]`: “normalised enrichment score” -0.0886.
Under “normalised enrichment score”, `HKTFDKLRLFDTP [R5D]` is recorded as 0.149.
`HKTFRKLRIFDTP [L9I]`: “normalised enrichment score” 0.428.
Under “normalised enrichment score”, `HKTARKLRLFDTP [F4A]` is recorded as 0.289.
`HKTFRMLRLFDTP [K6M]` — result for “normalised enrichment score”: -0.238.
For `HKTCRKLRLFDTP [F4C]`, “normalised enrichment score” read 0.159.

Series 3 — technique: RNA Bind-n-Seq; form: RNA; matrix: in vitro; tested at: 365 nM; reference: no-protein control; direction: higher = stronger binding
Target: RNA binding protein fox-1 homolog 2, RRM domain, GST-SBP tag (RBFOX2, Homo sapiens, UniProt O43251-10, residues 100-194)
Notes: natural RNA segment, single round, ends assumed
Construct (chain): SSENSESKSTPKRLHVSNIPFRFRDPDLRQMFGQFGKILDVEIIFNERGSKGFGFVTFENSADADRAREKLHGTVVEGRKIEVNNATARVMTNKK
Under “RBNS enrichment (R)”, `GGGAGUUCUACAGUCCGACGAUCGGUGUUCAUGUUAGUUUCUUCAAAACCCUAUCUAAUACUAGGCAAAGUAGCCAAGAGCCUUUUGUUUUGUUUUUAUUUUGAUAAAUUAGUGGAGAAAUGGCAUUUUAAGAUGGAAUUCUCGGGUGCCAA` is recorded as 0.525.
`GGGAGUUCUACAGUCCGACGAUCACACCGUUCCCUCCAAAAGCAGACCUCGGAAUCACUGCCAAAUAAGUAACUAGACGUUUACAGGCCAUACAUGUCUUACCACUGAGAUGGCGCGUGCGUGGGUCUUGAGGUGGAAUUCUCGGGUGCCAA` — result for “RBNS enrichment (R)”: 0.397.
`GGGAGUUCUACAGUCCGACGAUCACCUCUUGUGUUGAAUGGAGACCUGGGUUGAGAUGUGUCUGCUCUUGUAGGAAGAUCUUUUGUAUCAGGAACAUGUACACUAGGCCCUGUUCCCGUCCACAAGCUGAGCCUGGAAUUCUCGGGUGCCAA` — result for “RBNS enrichment (R)”: 0.575.
For `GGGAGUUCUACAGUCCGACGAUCAUAGGGACAACCUCCUUGCUGGCCAACACCUGCUGGAGCAGGGGCACAGGUCCCAGCAACUGAUCCUCAGUGGAUGGGUCUGCAGCCAAAGCCUUAAUGGGCUCUCUUUUUGGAAUUCUCGGGUGCCAA`, “RBNS enrichment (R)” read 0.255.
Under “RBNS enrichment (R)”, `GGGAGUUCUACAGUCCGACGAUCUGAGCCCAGUGAGUCCCAGCAGCUAUCAGCCUCCCUGAACGAUUAAACAGCUCCUCCCAGCAUUUGCAUUUGCCCUUCUGUUUCUGUGAGGCCGGCAGCCCUUGGGGCUGUGGAAUUCUCGGGUGCCAA` is recorded as 2.19.
`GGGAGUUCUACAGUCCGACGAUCACAGAGCUAAAGAAACGUUUUUUAAAAAACUACUUUUAAUCCAGAUCCAUGGAAUAAUAUGUAAUUCUUGUUUUCCUUGUCUUUUAGUCCAGUUUUUCUUUUUCCCUCUCUGGAAUUCUCGGGUGCCAA` — result for “RBNS enrichment (R)”: 0.547.
For `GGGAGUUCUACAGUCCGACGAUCUUUGUUUAUUUUUUGGAAGAGACAAAGAUUUCUUCUGCACUCUGAGCCCAUAGGUCUCAGAGAGUUAAUAGGAGUAUUUUUGGGCUAUUGCAUAAGGAGCCACUGCUGCCUGGAAUUCUCGGGUGCCAA`, “RBNS enrichment (R)” read 0.528.

Single results of other studies
`PhoQ, residues 284 288 289 292 302 303 SIHMAM` gave a fold induction of 1.55 (PhoP, residues 12 14 15 18 19 HLGGL (Escherichia coli, UniProt P23836); Sort-seq, refers to: YFP reporter; E. coli; PhoQ-PhoP variant library, added: 10 µM Mg2+; reference: high Mg2+ state, higher = stronger signaling).

Excerpt of the above (series 2):
For `HKTCRKLRLFDTP [F4C]`, “normalised enrichment score” read 0.159.
